Measured values gathered from unrelated publications.
Numbered parts are unrelated; each lists some results of a single study. Positions count from the first letter of the parent shown.

Series 1 — target: CCNB3, cyclin fold, Cln2 fusion (human); technique: yeast growth competition, sequencing; medium: yeast; setting: weak parent motif; reference: not given; reading: higher = stronger binding
Starting sequence: PKN2 docking peptide (human); VSAVQKLDFSDTM
| Variant | normalised enrichment score |
| --- | --- |
| VSAVQKLDFSDTQ [M13Q] | -0.157 |
| VSAPQKLDFSDTM [V4P] | 0.351 |
| VSAVQMLDFSDTM [K6M] | 0.211 |
| TSAVQKLDFSDTM [V1T] | 0.322 |
| VIAVQKLDFSDTM [S2I] | 0.18 |
| VSALQKLDFSDTM [V4L] | 0.595 |
| VSAVQKLDFKDTM [S10K] | 0.269 |
| VSAVQKLDFSATM [D11A] | 0.288 |
| VSAVQKLDFHDTM [S10H] | 0.388 |
| VSIVQKLDFSDTM [A3I] | 0.281 |
| VSAVQHLDFSDTM [K6H] | 0.225 |
| VSAVQKLKFSDTM [D8K] | 0.457 |

Series 2 — technique: aptamer microarray, sandwich; molecule type: DNA with 2'F-ANA; medium: in vitro; tested at: 200 nM; with: Cy3 exosite-II aptamer, 400 nM; reading: higher = stronger binding; strand: GGTTGGTGTGGTTGG
Target: Prothrombin, mature alpha-thrombin (F2, Homo sapiens, UniProt P00734)
Setting: whole 15-mer aptamer, many near background
| Modification | mean fluorescence intensity [a.u.] |
| --- | --- |
| 2'F-ANA at 1 4 5 9 13 15 | 48.3 |
| 2'F-ANA at 1 2 4 8 10 12 13 14 15 | 64.1 |
| 2'F-ANA at 4 6 7 8 9 10 11 12 13 14 15 | 55.9 |
| 2'F-ANA at 1 6 7 9 10 13 15 | 51.4 |
| 2'F-ANA at 5 6 12 13 15 | 111 |
| 2'F-ANA at 5 6 7 8 9 10 13 14 | 48.5 |
| 2'F-ANA at 1 5 6 9 10 14 15 | 53.7 |
| 2'F-ANA at 1 2 3 7 8 9 10 12 13 14 15 | 61.1 |
| 2'F-ANA at 2 3 6 8 9 10 11 12 14 15 | 230 |
| 2'F-ANA at 1 3 6 8 9 14 15 | 91.8 |
| 2'F-ANA at 4 6 7 8 9 13 | 185 |
| 2'F-ANA at 1 2 5 9 12 14 15 | 45.5 |
| 2'F-ANA at 5 6 8 12 13 14 15 | 47.6 |

Series 3 — technique: protein binding microarray; molecule type: double-stranded DNA, one strand shown; medium: in vitro; tested at: not given; reference: not given; reading: higher = stronger binding
Target: Histone acetyltransferase KAT6A, winged helix 1, GST fusion (KAT6A, Homo sapiens, UniProt Q92794, residues 1-85)
Setting: 8-mer, flanks averaged, mean of 2 arrays, mostly near background
Construct (chain): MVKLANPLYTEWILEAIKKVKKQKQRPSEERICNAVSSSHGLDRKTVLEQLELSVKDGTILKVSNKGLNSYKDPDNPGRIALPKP
| Strand | E-score |
| --- | --- |
| AAAAGCAA | -0.16 |
| AACCTCGA | -0.121 |
| ACTCCTGC | -0.182 |
| AATGAACT | -0.155 |
| GGGAGTGA | -0.0433 |
| ACAATGAT | -0.069 |
| GCATGAAC | -0.0381 |
| ATGCTGTG | -0.176 |

Mixed results
| Substance | target | assay | system | setting | scale | quantity | value |
| --- | --- | --- | --- | --- | --- | --- | --- |
| PhoQ, residues 284 288 289 292 302 303 SASVAL | PhoP, residues 12 14 15 18 19 SMASL (Escherichia coli, UniProt P23836) | Sort-seq, measured: YFP reporter | E. coli | PhoQ-PhoP variant library, with: 10 µM Mg2+ | reference: high Mg2+ state, higher = stronger signaling | fold induction | 1.57 |

For quick reference, copied from above (series 2):
| Modification | mean fluorescence intensity [a.u.] |
| --- | --- |
| 2'F-ANA at 5 6 12 13 15 | 111 |
| 2'F-ANA at 5 6 7 8 9 10 13 14 | 48.5 |
| 2'F-ANA at 1 5 6 9 10 14 15 | 53.7 |
